Assay results collected from several papers.
Lines come from different studies, so protocols differ. Several values in a cell are separate wells, animals, samples, runs or records. ± marks the error that the study gave.

SMILES	cell line	observed	method	medium	time	IC50
COc1cccc2c1C(=O)c1c(O)c3c(c(O)c1C2=O)C[C@@](O)(C(CO)=NNC(=O)CCCCCCCCCCNC(=O)CCCCCCCCCCNC(=O)CCCCCCCCCCNC(=O)CCCCCCCCCCNC(=O)[C@H](CCCCNC(=O)COCCOCCNC(=O)[C@@H](CC(=O)O)NC(=O)[C@@H](CC(=O)O)NC(=O)[C@@H](CC(=O)O)NC(=O)[C@H](N)CC(=O)O)NC(=O)COCCOCCNC(=O)[C@@H](CC(=O)O)NC(=O)[C@@H](CC(=O)O)NC(=O)[C@@H](CC(=O)O)NC(=O)[C@H](N)CC(=O)O)C[C@@H]3O[C@H]1C[C@H](N)[C@H](O)[C@H](C)O1	SAOS-2	cell growth or viability	CCK-8		72 h	0.45 µM
CC(C)[C@@H](NC(=O)[C@@H](C)c1cccc(C(=O)c2ccccc2)c1)C(=O)N[C@H](CCC(=O)O)C(=O)N[C@@H](C(=O)N[C@H](CCC(=O)O)C(=O)O)C(C)C	rat arthritic fibroblast-like synoviocytes				48 h	278 µg/mL
COC1=C[C@@H]2[C@@H]3Cc4ccc(OC)c(OC(=O)c5cnccn5)c4[C@]2(CCN3C)CC1=O	RAW264.7	cytotoxicity	MTT		24 h	> 100 µM
CCCCn1cc(C(=O)O)c(=O)c2cc(F)c3c(nnn3-c3ccccc3Cl)c21	PANC-1	cell growth or viability	SRB			37.6 µM
NC(=O)C1CN1S(=O)(=O)c1ccc(C(F)(F)F)cc1 (centres unmarked)	Balb/c 3T3 fibroblasts	cytotoxicity	neutral red uptake	DMEM with 5% FBS	24 h	7 ± 1 µM
CC=C(C)C(=O)OC1C(O)C2OC(COC(=O)CCCCCCCCCC(CCCCC)OC3OC(C)C(OC(C)=O)C(O)C3O2)C1OC(=O)C=Cc1ccccc1 (centres unmarked)	NIH/3T3	cytotoxicity				0.0247 µM
CCCCn1cc(C(=O)O)c(=O)c2cc(F)c(Nc3cccc(Cl)c3)c([N+](=O)[O-])c21	T47D	cell growth or viability	SRB			40.6 µM and 41 µM
COc1cccc2c1C(=O)c1c(O)c3c(c(O)c1C2=O)C[C@@](O)(C(CO)=NNC(=O)CCCCCCCCCCNC(=O)CCCCCCCCCCNC(=O)[C@H](CCCCNC(=O)COCCOCCNC(=O)[C@@H](CC(=O)O)NC(=O)[C@@H](CC(=O)O)NC(=O)[C@@H](CC(=O)O)NC(=O)[C@H](N)CC(=O)O)NC(=O)COCCOCCNC(=O)[C@@H](CC(=O)O)NC(=O)[C@@H](CC(=O)O)NC(=O)[C@@H](CC(=O)O)NC(=O)[C@H](N)CC(=O)O)C[C@@H]3O[C@H]1C[C@H](N)[C@H](O)[C@H](C)O1	SAOS-2	cell growth or viability	CCK-8		72 h	0.61 µM
COC(=O)C1CN1S(=O)(=O)c1ccc(NC(C)=O)cc1 (centres unmarked)	Balb/c 3T3 fibroblasts	cytotoxicity	neutral red uptake	DMEM with 5% FBS	24 h	600 ± 80 µM
Fc1ccc(Nc2nc(SCc3ccccc3Cl)nc3ccccc23)cc1	A549-ACE2	cytotoxicity			48 h	24.8 µM
CCCCn1cc(C(=O)O)c(=O)c2cc(F)c(Nc3ccccc3Cl)c([N+](=O)[O-])c21	T47D	cell growth or viability	SRB			45.8 µM
COC(=O)C1CN1S(=O)(=O)c1c(C)cc(C)cc1C (centres unmarked)	Balb/c 3T3 fibroblasts	cytotoxicity	neutral red uptake	DMEM with 5% FBS	24 h	200 ± 20 µM
CCCCn1cc(C(=O)O)c(=O)c2cc(F)c3c(nnn3-c3cccc(Cl)c3)c21	T47D	cell growth or viability	SRB			70.9 µM
COC1=C[C@@H]2[C@@H]3Cc4ccc(OC)c(OC(=O)c5ccncn5)c4[C@]2(CCN3C)CC1=O	RAW264.7	cytotoxicity	MTT		24 h	> 100 µM
COc1cc(O)c2c(=O)c3c(O)c(-c4c(C)cc5c(c4O)C(=O)C4=C(O)C[C@H](OC)[C@@H](O)[C@]4(C)O5)c(C)cc3oc2c1OC	NCI-H187	cell growth or viability	resazurin		5 days	9.9 µM
CCCCn1cc(C(=O)O)c(=O)c2cc(F)c(Nc3ccccc3Cl)c(N)c21	PANC-1	cell growth or viability	SRB			74 µM and 74.3 µM
NC(=O)C1CN1S(=O)(=O)c1ccc(F)cc1F (centres unmarked)	Balb/c 3T3 fibroblasts	cytotoxicity	neutral red uptake	DMEM with 5% FBS	24 h	13 ± 1 µM
COC1=C[C@@H]2[C@@H]3Cc4c(COC(=O)c5cnc(C)cn5)cc(OC)c(OC(=O)c5cnc(C)cn5)c4[C@]2(CCN3C)CC1=O	RAW264.7	cytotoxicity	MTT		24 h	> 100 µM
COC(=O)C1CN1S(=O)(=O)c1ccccc1 (centres unmarked)	Balb/c 3T3 fibroblasts	cytotoxicity	neutral red uptake	DMEM with 5% FBS	24 h	3310 ± 947 µM
CC(C)Cc1ccc(C(C)C(=O)[O-])cc1.CC(C)Cc1ccc(C(C)C(=O)[O-])cc1.[Cu+2].c1ccncc1.c1ccncc1 (centres unmarked)	OVCAR-3	cell viability	MTT		48 h	66 µM
Cc1ccc(S(=O)(=O)N2CC2C(N)=O)cc1 (centres unmarked)	Balb/c 3T3 fibroblasts	cytotoxicity	neutral red uptake	DMEM with 5% FBS	24 h	70 ± 7 µM
CCCCn1cc(C(=O)O)c(=O)c2cc(F)c(Nc3cccc(Cl)c3)c(N)c21	T47D	cell growth or viability	SRB			14.9 µM and 15 µM
CCc1ccc(S(=O)(=O)N2CC2C(=O)OC)cc1 (centres unmarked)	Balb/c 3T3 fibroblasts	cytotoxicity	neutral red uptake	DMEM with 5% FBS	24 h	100 ± 7 µM
N=C(NCCCNCCCCCCCNCCCNC(=N)NC(=N)NCCC(c1ccccc1)c1ccccc1)NC(=N)NCCC(c1ccccc1)c1ccccc1	K562	cell growth or viability	MTS		72 h	~10 µM
CCCCc1ccc(S(=O)(=O)N2CC2C(=O)OC)cc1 (centres unmarked)	Balb/c 3T3 fibroblasts	cytotoxicity	neutral red uptake	DMEM with 5% FBS	24 h	160 ± 17 µM
COC1=C[C@@H]2[C@@H]3Cc4ccc(OC)c(OC(=O)[C@@H](N)CC(C)C)c4[C@]2(CCN3C)CC1=O	RAW264.7	cytotoxicity	MTT		24 h	> 100 µM

Some of these lines once more:
SMILES	cell line	observed	method	medium	time	IC50
CCc1ccc(S(=O)(=O)N2CC2C(=O)OC)cc1 (centres unmarked)	Balb/c 3T3 fibroblasts	cytotoxicity	neutral red uptake	DMEM with 5% FBS	24 h	100 ± 7 µM
N=C(NCCCNCCCCCCCNCCCNC(=N)NC(=N)NCCC(c1ccccc1)c1ccccc1)NC(=N)NCCC(c1ccccc1)c1ccccc1	K562	cell growth or viability	MTS		72 h	~10 µM
CCCCc1ccc(S(=O)(=O)N2CC2C(=O)OC)cc1 (centres unmarked)	Balb/c 3T3 fibroblasts	cytotoxicity	neutral red uptake	DMEM with 5% FBS	24 h	160 ± 17 µM
COC1=C[C@@H]2[C@@H]3Cc4ccc(OC)c(OC(=O)[C@@H](N)CC(C)C)c4[C@]2(CCN3C)CC1=O	RAW264.7	cytotoxicity	MTT		24 h	> 100 µM
